{"data": "Measurements pooled from the literature", "note": "Compare with care: the assays were run in different laboratories. ± marks the error that the study gave."}
{"Substance": "CC1(C)SC2C(NC(=O)C(NC(=O)C3=C(O)CN(c4ccccc4)C3=O)c3ccccc3)C(=O)N2C1C(=O)O (stereo not shown)", "organism": "Escherichia coli", "test": "broth microdilution", "system": "BW25113, Mueller-Hinton broth", "MIC": "100 µg/mL"}
{"Substance": "OC(Cn1cncn1)(Cn1cncn1)c1ccc(F)cc1F", "organism": "Acanthamoeba polyphaga", "test": "cell growth, resazurin", "setting": "96 h, 28 °C", "MIC": "> 64 µg/mL"}
{"Substance": "pneumocandin J", "organism": "Candida glabrata", "test": "broth microdilution, resazurin", "system": "ATCC 2001", "setting": "24 h, 35 °C", "MIC": "3.2 µg/mL"}
{"Substance": "CC1(C)S[C@@H]2[C@H](NC(=O)C(C(=O)O)c3ccccc3)C(=O)N2[C@H]1C(=O)O (stereo partly shown)", "organism": "Acinetobacter baumannii", "test": "microbial growth, broth dilution", "system": "ATCC19606", "MIC": "100 µg/mL"}
{"Substance": "N#Cc1ccc(COc2ccc(C#Cc3ccc(C(F)(F)[C@](O)(Cn4cnnn4)c4ccc(F)cc4F)nc3)cc2)cc1", "organism": "Acanthamoeba polyphaga", "test": "cell growth, resazurin", "setting": "96 h, 28 °C", "MIC": "0.25 µg/mL"}
{"Substance": "pneumocandin H", "organism": "Candida glabrata", "test": "broth microdilution, resazurin", "system": "ATCC 2001", "setting": "24 h, 35 °C", "MIC": "3.2 µg/mL"}
{"Substance": "CC1(C)SC2C(NC(=O)C(NC(=O)C3=C(O)C4CCCN4C3=O)c3ccccc3)C(=O)N2C1C(=O)O (stereo not shown)", "organism": "Escherichia coli", "test": "broth microdilution", "system": "BW25113, Mueller-Hinton broth", "setting": "18 h, without clavulanic acid", "MIC": "200 µg/mL"}
{"Substance": "COc1ccc(-c2nc3cc(-c4nc5cc(N6CCN(C)CC6)ccc5[nH]4)ccc3[nH]2)cc1", "organism": "Candida parapsilosis", "test": "fungal growth", "system": "ATCC 22019", "setting": "MIC-0 endpoint", "MIC": "3.9 to 7.8 µg/mL"}
{"Substance": "CC1(C)SC2C(NC(=O)C(NC(=O)C3=C(O)C(Cc4ccsc4)NC3=O)c3ccccc3)C(=O)N2C1C(=O)O (stereo not shown)", "organism": "Acinetobacter baumannii", "test": "microbial growth, broth dilution", "system": "ATCC19606", "MIC": "50 µg/mL"}
{"Substance": "C=C(C)[C@@H]1CC[C@]2(C)CC[C@]3(C)[C@H](CC[C@@H]4[C@@]5(C)CCC(=O)C(C)(C)[C@@H]5CC[C@]43C)[C@@H]12", "organism": "Lodderomyces parapsilosis", "test": "microbial growth, broth dilution", "system": "ATCC22019", "setting": "48 h", "MIC": "500 µg/mL"}
{"Substance": "pneumocandin K", "organism": "Candida glabrata", "test": "broth microdilution, resazurin", "system": "ATCC 2001", "setting": "24 h, 35 °C", "MIC": "0.1 µg/mL"}
{"Substance": "CCOC(=O)c1c(N)csc1-c1cn(-c2ccccc2)nc1-c1ccc(C)cc1", "organism": "Acinetobacter baumannii", "test": "broth microdilution", "system": "clinical urinary isolate", "setting": "compound gamma-irradiated 5 kGy", "MIC": "0.24 ± 0.1 µg/mL"}
{"Substance": "pneumocandin A0", "organism": "Candida parapsilosis", "test": "broth microdilution, resazurin", "system": "ATCC 90018", "setting": "24 h, 35 °C", "MIC": "12.8 µg/mL"}
{"Substance": "CC1(C)SC2C(NC(=O)C(NC(=O)C3=C(O)C(c4ccccc4)NC3=O)c3ccccc3)C(=O)N2C1C(=O)O (stereo not shown)", "organism": "Escherichia coli", "test": "broth microdilution", "system": "BW25113, Mueller-Hinton broth", "setting": "18 h, without clavulanic acid", "MIC": "100 µg/mL"}
{"Substance": "KTLTGKTITLE", "organism": "Bacillus megaterium", "system": "peptide, 899, Luria broth", "setting": "overnight, 37 °C", "MIC": "> 100 µM"}
{"Substance": "C=C(C)[C@@H]1CC[C@]2(C(=O)O)CC[C@]3(C)[C@H](CC[C@@H]4[C@@]5(C)CC[C@H](O)C(C)(C)[C@@H]5CC[C@]43C)[C@@H]12", "organism": "Lodderomyces parapsilosis", "test": "microbial growth, broth dilution", "system": "ATCC22019", "setting": "48 h", "MIC": "500 µg/mL"}
{"Substance": "CC1(C)S[C@@H]2[C@H](NC(=O)[C@H](N)c3ccccc3)C(=O)N2[C@H]1C(=O)O", "organism": "Lactobacillus acidophilus", "test": "broth microdilution", "system": "ATCC 4356, MRS medium", "setting": "24 h, 37 °C", "MIC": "0.62 µg/mL"}
{"Substance": "CC1(C)SC2C(NC(=O)C(NC(=O)C3=C(O)C(Cc4ccccc4)NC3=O)c3ccccc3)C(=O)N2C1C(=O)O (stereo not shown)", "organism": "Escherichia coli", "test": "broth microdilution", "system": "BW25113, Mueller-Hinton broth", "setting": "added: 2,2'-bipyridyl 30 µg/mL", "MIC": "25 µg/mL"}
{"Substance": "pneumocandin B0", "organism": "Candida parapsilosis", "test": "broth microdilution, resazurin", "system": "ATCC 90018", "setting": "24 h, 35 °C", "MIC": "12.8 µg/mL"}
{"note": "For quick reference, copied from above:"}
{"Substance": "KTLTGKTITLE", "organism": "Bacillus megaterium", "system": "peptide, 899, Luria broth", "setting": "overnight, 37 °C", "MIC": "> 100 µM"}
{"Substance": "C=C(C)[C@@H]1CC[C@]2(C(=O)O)CC[C@]3(C)[C@H](CC[C@@H]4[C@@]5(C)CC[C@H](O)C(C)(C)[C@@H]5CC[C@]43C)[C@@H]12", "organism": "Lodderomyces parapsilosis", "test": "microbial growth, broth dilution", "system": "ATCC22019", "setting": "48 h", "MIC": "500 µg/mL"}
